Experimental data from different studies.
Compare with care: the assays were run in different laboratories. Several values in a cell are separate wells, animals, samples, runs or records. ± gives the spread as reported.
rep papain-like protease: Replicase polyprotein 1ab, papain-like protease (rep, Severe acute respiratory syndrome coronavirus 2, UniProt P0DTD1)
rep nsp14: Replicase polyprotein 1ab, nsp14 (rep, Severe acute respiratory syndrome coronavirus 2, UniProt P0DTD1)
rep main protease: Replicase polyprotein 1ab, main protease (rep, Severe acute respiratory syndrome coronavirus 2, UniProt P0DTD1)
rep methyltransferase: Replicase polyprotein 1ab, methyltransferase (rep, Severe acute respiratory syndrome coronavirus 2, UniProt P0DTD1)
rep nsp13 helicase: Replicase polyprotein 1ab, nsp13 helicase (rep, Severe acute respiratory syndrome coronavirus 2, UniProt P0DTD1)

COC(=O)C(CO)NC(=O)CC(O)C(Cc1ccccc1)NC(=O)OC(C)(C)C (centres unmarked)
IC50 (rep papain-like protease; enzyme activity, inhibitor, FRET): 1.46 µM

Cc1ccc(OCCN(C)C)cc1C(=O)N[C@H](C)c1cc(-c2cnn(CF)c2)cc(-c2ccn(C)n2)c1
IC50 (rep papain-like protease; enzyme activity, inhibitor, FRET): 0.0867 µM

CC(C)(C)c1ccc(NC(=O)NCCC[C@H](CNCc2ccccc2)C[C@H]2O[C@@H](n3cnc4c(N)ncnc43)[C@H](O)[C@@H]2O)cc1
IC50 (rep nsp14; nsp14 methyltransferase activity, inhibitor, radiometric SPA; 20 min, together with: 3H-SAM 250 nM, RNA 50 nM): 95 ± 6 µM

CCOC(=O)CC[C@@H](C(=O)OCC)n1[se]c2ccccc2c1=O
IC50 (rep main protease; enzyme activity, inhibitor): 0.102 µM

O=c1c2ccccc2sn1-c1ccccc1
IC50 (rep main protease; enzyme activity, inhibitor; 10 min preincubation): 0.19 ± 0.02 µM

CC1CCc2c(sc3ncnc(Sc4nnc(CN5CCCC5)o4)c23)C1 (centres unmarked)
IC50 (rep main protease; enzyme activity, inhibitor): 14.8 µM

N#Cc1ccccc1C[C@@H](N)C(=O)N[C@H](Cc1ccc(Cl)cc1Cl)C(=O)N[C@H](CC(=O)NC(N)=O)Cc1ccc(F)cc1
IC50 (rep main protease; enzyme activity, inhibitor, fluorescence): 1.8 µM

[2H]C1([2H])CC[C@@H](C[C@@H](C#N)NC(=O)[C@@H]2[C@@H]3[C@H](CN2C(=O)[C@@H](NC(=O)C(F)(F)F)C(C)(C)C)C3(C)C)C(=O)N1
IC50 (rep main protease; enzyme activity, inhibitor): 0.041 µM

CC1CC(c2ccc(C(=O)O)s2)=NN1c1ccc(C#N)c(Cl)c1 (centres unmarked)
IC50 (rep methyltransferase; enzyme activity, inhibitor): 0.794 µM

Cc1cc(C(=O)COn2nnc3ccc(S(C)(=O)=O)cc32)c(C)n1C
IC50 (rep main protease; enzyme activity, inhibitor): 4.67 µM

CNc1nc(NCc2cccc(NC(=O)CCl)c2)nc(Nc2cccc3cnccc23)n1
IC50 (rep papain-like protease; enzyme activity, inhibitor, fluorescence): 0.78 µM

CNC(=O)C[C@H](Cc1ccc(F)cc1)NC(=O)[C@@H](Cc1ccc(Cl)cc1Cl)NC(=O)[C@@H](Cc1ccccc1C#N)NC(=O)OC(C)(C)C
IC50 (rep main protease; enzyme activity, inhibitor, fluorescence): 20 µM

CC(C)[C@H](NC(=O)[C@H]1CCC[C@@H]1NC(=O)[C@H](CC(N)=O)NC(=O)[C@H](CCCNC(=N)N)NC(=O)[C@H]1CCC[C@@H]1N)C(=O)N[C@@H](Cc1ccccc1)C(=O)N[C@H]1CCC[C@@H]1C(=O)N[C@@H](Cc1ccccc1)C(=O)N[C@@H](Cc1ccc(O)cc1)C(=O)N[C@H]1CCC[C@@H]1C(=O)N[C@H](C(=O)N[C@@H](CC(=O)O)C(N)=O)[C@@H](C)O
IC50 (rep main protease; enzyme activity, inhibitor): 5.2 µM

O=C(c1ccc([N+](=O)[O-])c(-n2ccnc2)c1)N(c1cccc(Cl)c1)c1nc2ccccc2s1
IC50 (rep main protease; enzyme activity, inhibitor, FRET): 74 µM

COc1cc(C(=O)N(CCC(=O)N2CCNCC2)Cc2cccc(Cl)c2)cc(OC)c1OC
IC50 (Replicase polyprotein 1ab, nsp3 macrodomain (rep, Severe acute respiratory syndrome coronavirus 2, UniProt P0DTD1); ADP-ribose binding, inhibitor, fluorescence polarization; Mac1 domain, SARS-CoV-2): 338 ± 4.9 µM

Nc1ncnc2c1ncn2[C@@H]1O[C@H](CSCc2cc(C(=O)O)cc(-c3cccc(O)c3)c2)[C@@H](O)[C@H]1O
IC50 (Replicase polyprotein 1ab, nsp16 with nsp10 (rep, Severe acute respiratory syndrome coronavirus 2, UniProt P0DTD1); methyltransferase activity, inhibitor; 30 min, 30 °C, together with: SAM 10 µM): 0.0014 ± 0.0001 µM

CC(=O)OCC1Cc2c(-c3cc(N(C)C)ccn3)cccc2-c2c(O)ccc(-c3ccc(Br)cc3)c21 (centres unmarked)
IC50 (rep main protease; enzyme activity, inhibitor): 10 µM

CC(C)=CCc1c(O)ccc(-c2coc3cc(O)cc(O)c3c2=O)c1O
IC50 (Replicase polyprotein 1ab, nsp12 with nsp7/nsp8 (rep, Severe acute respiratory syndrome coronavirus 2, UniProt P0DTD1); RdRp polymerase activity, inhibitor; SARS-CoV-2): 47.3 µM

C=C1CCC2C(C)(CO)C(O)CCC2(C)C1CC(SC(=S)N1CCN(Cc2cc(F)c(F)cc2F)CC1)C1=CCOC1=O (centres unmarked)
IC50 (rep main protease; enzyme activity, inhibitor, fluorescence): 72 µM

Cc1cncc(C(=O)N2CCN(C(c3ccccc3)c3ccccc3)CC2)c1
IC50 (rep main protease; enzyme activity, inhibitor): 0.13 µM

N#Cc1ccccc1C[C@@H](N)C(=O)N[C@H](Cc1ccc(Cl)cc1Cl)C(=O)N[C@H](CC(=O)NCCCNc1nnc(N)[nH]1)Cc1ccc(F)cc1
IC50 (rep main protease; enzyme activity, inhibitor, fluorescence): 0.5 µM

O=c1cc(-c2ccc(OC3O[C@H](CO)[C@@H](O)[C@H](O)[C@H]3O)c(O)c2)oc2cc(O)cc(O)c12 (some centres unmarked)
IC50 (rep nsp13 helicase; helicase unwinding activity): > 30 µM

C[C@@H]1C[C@H]2[C@@H](C[C@H]1n1[se]c3ccccc3c1=O)C2(C)C
IC50 (rep main protease; enzyme activity, inhibitor): 0.487 µM

O=C(O[C@@H]1Cc2c(O)cc(O)cc2O[C@H]1c1ccc(O)c(O)c1)c1cc(O)c(O)c(O)c1
IC50 (rep methyltransferase; enzyme activity, inhibitor; pH 7.5): 17.3 µM

O=C(Nc1ccccc1)c1ccccc1[Se][Se]c1ccccc1C(=O)Nc1ccccc1
IC50 (rep main protease; enzyme activity, inhibitor; Mpro, with DTT): 209 µM

Nc1ncnc2c1ncn2[C@@H]1O[C@H](CSCc2ccc(Cl)cc2Cl)[C@@H](O)[C@H]1O
IC50 (rep nsp14; methyltransferase activity, radiometric; together with: 3H-SAM): < 5 µM and 4.2 µM

CCC(C(=O)Nn1cccc1)n1cc(F)cc2nc(SCc3ccc(F)cc3)nc1-2 (centres unmarked)
IC50 (rep papain-like protease; enzyme activity, inhibitor): 8.77 µM

O=C(NCCc1cccc(F)c1)[C@H](c1cncnc1)N(C(=O)[C@@H](F)Cl)c1ccc(S(F)(F)(F)(F)F)cc1
IC50 (rep main protease; enzyme activity, inhibitor): 14 µM

O=C(/C=C/c1ccc(O)c(O)c1)O[C@@H]1Cc2c(O)cc(O)cc2O[C@@H]1c1cc(O)c(O)c(O)c1
IC50 (rep main protease; enzyme activity, inhibitor, FRET): 9.09 µM

Oc1ccc(/C=N/NC(=S)Nc2ccc(Cl)cc2)cc1
IC50 (rep main protease; enzyme activity, inhibitor, FRET): 9.11 µM

CC1=C(c2ccccc2)C1C(=O)NCc1nc(-c2ccc(C)cc2)no1 (centres unmarked)
IC50 (rep main protease; enzyme activity, inhibitor, FRET): 35.2 µM

Cc1ccc(OCCN(C)C)cc1C(=O)N[C@H](C)c1cc(-c2cnn(CCN3CCOCC3)c2)cc(-c2ccn(C)n2)c1
IC50 (rep papain-like protease; enzyme activity, inhibitor, FRET): 0.117 µM

CNC(=O)C[C@H](Cc1ccc(F)cc1)NC(=O)[C@@H](Cc1ccc(Cl)cc1Cl)NC(=O)[C@H](N)Cc1ccccc1[N+](=O)[O-]
IC50 (rep main protease; enzyme activity, inhibitor, fluorescence): 4 µM

C=CC(=O)N1CCN(c2cc(-c3ccc(C4CCC4)cc3)ncc2C(=O)N[C@H](Cc2ccccc2)C(=O)NC)C(C)C1 (some centres unmarked)
IC50 (rep main protease): > 100 µM

CCCCCC/C=C\CCCCCCC[C@@H](O)Cc1cc(O)cc(O)c1
IC50 (rep main protease; enzyme activity, inhibitor; with preincubation): > 100 µM

C[C@H]1CC[C@@H]2[C@H]([C@@H]1n1[se]c3ccccc3c1=O)C2(C)C
IC50 (rep main protease; enzyme activity, inhibitor): 0.312 µM

CNC(=O)C[C@H](Cc1ccc(F)cc1)NC(=O)[C@@H](Cc1ccc(Cl)cc1Cl)NC(=O)[C@@H](N)C[C@H]1CCNC1=O
IC50 (rep main protease; enzyme activity, inhibitor, fluorescence): > 50 µM

CC(c1ccccc1Cl)N(C)Cc1cc(O)ccc1Cl (centres unmarked)
IC50 (rep papain-like protease; deISGylase activity, inhibitor; together with: ISG15-AMC 0.5 µM): 12.5 ± 5.1 µM

O=c1c(O[C@@H]2O[C@H](CO)[C@@H](O)[C@H](O)[C@H]2O)c(-c2ccc(O)c(O)c2)oc2cc(O)cc(O)c12
IC50 (rep nsp13 helicase; helicase unwinding activity): > 30 µM

O=C(C=Cc1ccc(O)c(O)c1)OC1CC(O)(C(=O)O)CC(OC(=O)C=Cc2ccc(O)c(O)c2)C1O (centres unmarked)
IC50 (rep main protease; enzyme activity, inhibitor, FRET): 4.74 ± 0.24 µM

CC1CC(c2ccc(C(=O)NS(C)(=O)=O)cc2)=NN1c1ccc(C#N)c(Cl)c1 (centres unmarked)
IC50 (rep methyltransferase; enzyme activity, inhibitor): 1.89 µM

CC1(C)C=Cc2c(ccc(C3COc4cc(O)cc(O)c4C3=O)c2O)O1 (centres unmarked)
IC50 (rep main protease; enzyme activity, inhibitor): 1.52 µM

O=C(OCc1ccccc1)ONC(=O)c1ccccc1
IC50 (rep main protease; enzyme activity, inhibitor, FRET): 11.7 µM

O=C(c1cccc(-n2cccc2)c1)N1CCCN(S(=O)(=O)c2ccc(F)cc2)CC1
IC50 (rep main protease; enzyme activity, inhibitor): > 100 µM

CCC(C(=O)Nc1ccccc1)n1cccc2nc(SCc3ccc(F)cc3)nc1-2 (centres unmarked)
IC50 (rep papain-like protease; enzyme activity, inhibitor): 13.8 µM

CCc1n[nH]c(NC(=O)c2ccc3c(c2)nnn3C)n1
IC50 (rep main protease; enzyme activity, inhibitor): 7.37 µM

COc1ccc(-c2cc(=O)c3c(O)cc(O)cc3o2)cc1Oc1ccc(-c2cc(=O)c3c(O)cc(O)cc3o2)cc1
IC50 (rep papain-like protease; enzyme activity, inhibitor, fluorescence; pH 8): 22.8 µM

For quick reference, copied from above:
Nc1ncnc2c1ncn2[C@@H]1O[C@H](CSCc2cc(C(=O)O)cc(-c3cccc(O)c3)c2)[C@@H](O)[C@H]1O
IC50 (Replicase polyprotein 1ab, nsp16 with nsp10 (rep, Severe acute respiratory syndrome coronavirus 2, UniProt P0DTD1); methyltransferase activity, inhibitor; 30 min, 30 °C, together with: SAM 10 µM): 0.0014 ± 0.0001 µM

CC(C)(C)c1ccc(NC(=O)NCCC[C@H](CNCc2ccccc2)C[C@H]2O[C@@H](n3cnc4c(N)ncnc43)[C@H](O)[C@@H]2O)cc1
IC50 (rep nsp14; nsp14 methyltransferase activity, inhibitor, radiometric SPA; 20 min, together with: 3H-SAM 250 nM, RNA 50 nM): 95 ± 6 µM

CC1(C)C=Cc2c(ccc(C3COc4cc(O)cc(O)c4C3=O)c2O)O1 (centres unmarked)
IC50 (rep main protease; enzyme activity, inhibitor): 1.52 µM
